Measured values of several laboratories.
“And” joins repeats or separate records; there may be more than shown. Numbers after ± are the reported error.
BCL2L1: BCL2L1 fragment (Homo sapiens)
KEAP1: KEAP1 321-609 (Homo sapiens, UniProt Q14145)
UniProt Q14145, sequence (whole entry, looked up): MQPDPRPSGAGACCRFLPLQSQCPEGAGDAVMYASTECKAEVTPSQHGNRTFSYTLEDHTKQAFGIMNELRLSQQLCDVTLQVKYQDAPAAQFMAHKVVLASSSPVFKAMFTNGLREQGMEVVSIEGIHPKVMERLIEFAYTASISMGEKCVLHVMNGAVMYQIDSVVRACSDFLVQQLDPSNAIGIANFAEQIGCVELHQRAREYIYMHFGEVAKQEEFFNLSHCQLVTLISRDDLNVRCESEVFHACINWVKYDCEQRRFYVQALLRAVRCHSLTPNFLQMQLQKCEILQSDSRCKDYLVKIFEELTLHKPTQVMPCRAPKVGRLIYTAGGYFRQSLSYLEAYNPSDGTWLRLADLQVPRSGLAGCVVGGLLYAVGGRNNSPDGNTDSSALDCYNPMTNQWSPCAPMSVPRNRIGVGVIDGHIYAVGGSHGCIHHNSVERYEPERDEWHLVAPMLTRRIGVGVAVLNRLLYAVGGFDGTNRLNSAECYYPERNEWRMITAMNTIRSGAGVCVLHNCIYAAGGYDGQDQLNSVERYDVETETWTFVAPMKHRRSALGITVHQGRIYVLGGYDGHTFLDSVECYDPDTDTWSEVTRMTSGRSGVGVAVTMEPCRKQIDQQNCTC
PCNA: PCNA (Homo sapiens, UniProt P12004)
UniProt P12004, sequence (whole entry, looked up): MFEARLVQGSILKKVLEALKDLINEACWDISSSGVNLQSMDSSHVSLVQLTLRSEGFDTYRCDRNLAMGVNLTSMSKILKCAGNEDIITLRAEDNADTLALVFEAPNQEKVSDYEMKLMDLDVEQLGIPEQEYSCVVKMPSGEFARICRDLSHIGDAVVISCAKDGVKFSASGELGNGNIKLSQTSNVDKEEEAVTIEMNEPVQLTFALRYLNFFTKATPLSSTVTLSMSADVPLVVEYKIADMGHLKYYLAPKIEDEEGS
IRF2BP2: IRF2BP2 fragment (Homo sapiens)
Crebbp: Crebbp 340-439 (Mus musculus, UniProt P45481)
UniProt P45481, sequence (whole entry, looked up): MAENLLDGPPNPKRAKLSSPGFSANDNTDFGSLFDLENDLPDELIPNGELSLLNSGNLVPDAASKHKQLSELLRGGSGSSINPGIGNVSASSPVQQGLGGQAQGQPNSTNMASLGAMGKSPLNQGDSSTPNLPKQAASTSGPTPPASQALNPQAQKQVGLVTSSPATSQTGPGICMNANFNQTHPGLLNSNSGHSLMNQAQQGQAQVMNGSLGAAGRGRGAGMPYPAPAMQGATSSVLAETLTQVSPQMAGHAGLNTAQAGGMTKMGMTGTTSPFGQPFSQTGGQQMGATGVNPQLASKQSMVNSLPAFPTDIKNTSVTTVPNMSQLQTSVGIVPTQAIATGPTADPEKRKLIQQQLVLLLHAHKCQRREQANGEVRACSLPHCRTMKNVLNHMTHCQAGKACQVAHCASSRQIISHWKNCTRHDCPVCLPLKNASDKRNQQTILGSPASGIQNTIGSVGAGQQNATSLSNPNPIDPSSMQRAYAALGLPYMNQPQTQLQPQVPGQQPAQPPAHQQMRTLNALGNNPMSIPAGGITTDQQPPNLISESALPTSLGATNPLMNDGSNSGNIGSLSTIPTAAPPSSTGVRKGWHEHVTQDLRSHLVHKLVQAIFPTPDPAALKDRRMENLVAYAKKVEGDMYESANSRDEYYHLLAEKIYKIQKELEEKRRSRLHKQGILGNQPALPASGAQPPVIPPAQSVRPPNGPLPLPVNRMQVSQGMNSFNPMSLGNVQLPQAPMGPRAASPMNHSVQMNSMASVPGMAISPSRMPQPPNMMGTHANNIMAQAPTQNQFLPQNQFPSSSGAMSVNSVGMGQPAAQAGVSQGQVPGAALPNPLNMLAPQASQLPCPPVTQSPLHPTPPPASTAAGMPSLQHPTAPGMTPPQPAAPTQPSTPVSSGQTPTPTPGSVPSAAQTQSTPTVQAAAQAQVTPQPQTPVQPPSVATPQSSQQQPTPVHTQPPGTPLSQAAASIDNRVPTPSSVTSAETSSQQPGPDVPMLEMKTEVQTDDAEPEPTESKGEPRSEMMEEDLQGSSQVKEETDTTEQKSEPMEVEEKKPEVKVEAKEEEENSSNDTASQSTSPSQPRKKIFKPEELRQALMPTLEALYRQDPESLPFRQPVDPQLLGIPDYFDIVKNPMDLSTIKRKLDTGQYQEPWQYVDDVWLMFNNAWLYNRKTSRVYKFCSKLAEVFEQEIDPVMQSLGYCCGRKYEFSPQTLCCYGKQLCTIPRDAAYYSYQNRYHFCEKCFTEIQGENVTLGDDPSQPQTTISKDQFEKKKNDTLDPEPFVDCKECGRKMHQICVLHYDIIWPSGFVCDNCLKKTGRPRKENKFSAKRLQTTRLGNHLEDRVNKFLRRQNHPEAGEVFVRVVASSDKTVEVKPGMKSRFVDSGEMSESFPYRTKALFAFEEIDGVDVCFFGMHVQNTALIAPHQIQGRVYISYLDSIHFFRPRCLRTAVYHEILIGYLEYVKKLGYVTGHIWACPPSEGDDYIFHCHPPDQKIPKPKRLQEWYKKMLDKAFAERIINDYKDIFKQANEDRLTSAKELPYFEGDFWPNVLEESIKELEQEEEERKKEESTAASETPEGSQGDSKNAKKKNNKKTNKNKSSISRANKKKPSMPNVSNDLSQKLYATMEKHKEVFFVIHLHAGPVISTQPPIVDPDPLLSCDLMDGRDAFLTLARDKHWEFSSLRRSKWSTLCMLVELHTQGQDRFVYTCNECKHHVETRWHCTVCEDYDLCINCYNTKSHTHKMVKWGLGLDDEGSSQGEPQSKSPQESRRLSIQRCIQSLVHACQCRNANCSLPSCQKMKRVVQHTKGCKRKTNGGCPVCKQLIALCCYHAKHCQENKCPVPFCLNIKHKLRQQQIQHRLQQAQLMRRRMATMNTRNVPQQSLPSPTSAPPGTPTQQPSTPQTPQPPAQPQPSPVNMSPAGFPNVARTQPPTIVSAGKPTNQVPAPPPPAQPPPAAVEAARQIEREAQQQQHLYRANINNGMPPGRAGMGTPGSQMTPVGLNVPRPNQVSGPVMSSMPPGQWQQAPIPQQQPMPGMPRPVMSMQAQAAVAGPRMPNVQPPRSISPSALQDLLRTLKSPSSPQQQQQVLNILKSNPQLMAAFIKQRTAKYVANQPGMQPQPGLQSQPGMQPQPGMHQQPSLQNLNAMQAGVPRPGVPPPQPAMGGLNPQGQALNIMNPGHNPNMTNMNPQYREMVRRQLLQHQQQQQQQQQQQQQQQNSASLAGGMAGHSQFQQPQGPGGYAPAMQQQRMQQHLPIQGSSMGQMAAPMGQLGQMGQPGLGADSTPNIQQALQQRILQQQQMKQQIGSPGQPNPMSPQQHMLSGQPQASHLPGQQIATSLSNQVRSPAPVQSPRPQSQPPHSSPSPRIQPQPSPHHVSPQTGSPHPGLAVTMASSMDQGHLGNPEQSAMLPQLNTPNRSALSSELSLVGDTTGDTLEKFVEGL
Mcl1 152-308: Mcl1 152-308 (Mus musculus, UniProt P97287)
UniProt Q09822, sequence (whole entry, unmodified, looked up): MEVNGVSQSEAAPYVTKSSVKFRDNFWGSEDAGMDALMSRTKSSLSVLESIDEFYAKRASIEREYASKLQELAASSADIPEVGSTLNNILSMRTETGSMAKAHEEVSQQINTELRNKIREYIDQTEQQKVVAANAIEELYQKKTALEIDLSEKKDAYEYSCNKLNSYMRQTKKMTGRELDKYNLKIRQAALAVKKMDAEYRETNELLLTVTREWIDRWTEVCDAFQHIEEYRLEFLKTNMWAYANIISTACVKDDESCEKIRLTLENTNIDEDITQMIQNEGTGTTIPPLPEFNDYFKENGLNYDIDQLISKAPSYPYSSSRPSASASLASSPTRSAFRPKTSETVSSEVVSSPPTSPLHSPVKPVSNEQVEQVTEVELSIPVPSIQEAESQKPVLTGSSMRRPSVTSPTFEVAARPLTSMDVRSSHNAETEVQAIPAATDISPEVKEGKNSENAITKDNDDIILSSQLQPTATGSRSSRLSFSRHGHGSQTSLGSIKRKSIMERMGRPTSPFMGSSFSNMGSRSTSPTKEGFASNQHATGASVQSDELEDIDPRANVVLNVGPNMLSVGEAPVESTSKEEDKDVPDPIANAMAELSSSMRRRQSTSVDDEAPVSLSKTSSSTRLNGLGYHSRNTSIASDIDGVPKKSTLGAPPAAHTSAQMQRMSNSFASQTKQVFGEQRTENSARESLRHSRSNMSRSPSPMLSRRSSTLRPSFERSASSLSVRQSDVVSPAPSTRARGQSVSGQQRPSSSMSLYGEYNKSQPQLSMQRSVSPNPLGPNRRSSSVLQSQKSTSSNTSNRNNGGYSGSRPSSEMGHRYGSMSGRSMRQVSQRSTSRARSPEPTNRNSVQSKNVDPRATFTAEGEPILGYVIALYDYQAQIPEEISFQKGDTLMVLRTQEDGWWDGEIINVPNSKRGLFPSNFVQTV
UniProt P97287, sequence (whole entry, looked up): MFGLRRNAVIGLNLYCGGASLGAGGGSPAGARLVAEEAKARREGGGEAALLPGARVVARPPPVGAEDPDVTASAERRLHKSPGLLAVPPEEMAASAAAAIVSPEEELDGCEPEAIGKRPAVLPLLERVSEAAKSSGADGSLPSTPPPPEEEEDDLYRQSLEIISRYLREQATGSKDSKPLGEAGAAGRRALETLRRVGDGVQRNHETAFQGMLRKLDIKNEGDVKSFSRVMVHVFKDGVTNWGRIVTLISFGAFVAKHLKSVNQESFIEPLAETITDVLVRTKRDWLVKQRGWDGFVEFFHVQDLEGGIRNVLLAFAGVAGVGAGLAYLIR
UniProt Q13283, sequence (whole entry, looked up): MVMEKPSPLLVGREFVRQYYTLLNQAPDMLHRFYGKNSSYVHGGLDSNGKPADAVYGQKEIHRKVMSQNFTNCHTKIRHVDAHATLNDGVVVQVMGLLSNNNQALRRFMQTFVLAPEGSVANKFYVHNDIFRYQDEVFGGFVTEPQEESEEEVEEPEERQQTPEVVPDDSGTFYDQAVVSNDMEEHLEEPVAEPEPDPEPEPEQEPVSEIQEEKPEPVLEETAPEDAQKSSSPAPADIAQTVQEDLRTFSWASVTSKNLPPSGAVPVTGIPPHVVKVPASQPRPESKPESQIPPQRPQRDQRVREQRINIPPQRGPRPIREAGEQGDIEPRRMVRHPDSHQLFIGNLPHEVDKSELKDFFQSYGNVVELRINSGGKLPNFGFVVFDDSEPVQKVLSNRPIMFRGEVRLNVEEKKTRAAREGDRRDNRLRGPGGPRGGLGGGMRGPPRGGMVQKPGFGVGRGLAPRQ

DLDSDDEY (TELO2 488-494 (Homo sapiens); pS491) — Kd (PIH1D1 51-180 K166A (Homo sapiens, UniProt Q9NWS0); ITC; peptide): 58100 nM
NLWAAQRYGRELRRMSDEFVDSFKK (BAD BH3 peptide (Homo sapiens); N-acetyl, C-terminal amide) — Kd (BCL2L1; ITC; peptide): 0.2 nM
ANGNAENEENGEQEADNEVD (PTMA 35-54, isoform 1; N-acetyl, C-terminal amide) — Kd (KEAP1; ITC; peptide): 13400 nM
VQDTRL (CFTR residues 1475-1480; N-terminal FITC label) — Kd (NHERF2 142-254 (Homo sapiens, UniProt Q15599-1); fluorescence polarisation; peptide): 46.3 ± 1.2 nM
FSIVGSLPRDF (GLRB peptide 398-408) — Kd (Gphn (Rattus norvegicus, UniProt Q03555); competition titration, magnetic tweezers; peptide): 2120 nM
KRRQTKMTDFYHSKR (CDKN1A residues 141-155 S146K; C-terminal amide) — Kd (PCNA; SPR; peptide): 13 nM
SLEEPHSPETGEKVVAGEVN (AMER1 280-299; N-acetyl, C-terminal amide) — Kd (KEAP1; ITC; peptide): 270 nM
PRPRPRPRPRPRPRPRPRPRPRPRPRPRPRPRPRPRPRPRPRPRPRPRPRPRPRPRPRPR (poly-PR 30 repeats) — Kd (G3BP1 143-226 (Homo sapiens, UniProt Q13283); BLI; peptide): 0.69 nM
KRRQRSMTDFYHSKR (CDKN1A residues 141-155 T145R; C-terminal amide) — Kd (PCNA; SPR; peptide): 88.5 nM
GRGRGRGRGRGRGRGRGRGRGRGRGRGRGRGRGRGRGRGRGRGRGRGRGRGRGRGRGRGR (poly-GR 30 repeats) — Kd (G3BP1 (Homo sapiens, UniProt Q13283); BLI; peptide): 5.97 ± 0.04 nM
NPFPLLEDEDDLFTDQK (WASHC2A 1197-1213 (Homo sapiens)) — Kd (SNX27 (Homo sapiens, UniProt Q96L92-3); ITC; peptide): 70550 ± 640 nM
GPGTPTRSSVITSARELHYG (ZBTB16 residues 279-298 (Homo sapiens)) — Kd (IRF2BP2; ITC; peptide): 7600 nM and 8580 nM and 5440 nM
CVPMTYRAC (cyclic peptide; cyclic, NOTA-Bn conjugated) — Kd (Lag3 (Mus musculus, UniProt Q61790); SPR; peptide): 10400 nM
RGSVITSA (Zbtb16 residues 285-292 (Mus musculus)) — Kd (IRF2BP2; ITC; peptide): 18900 nM and 19100 nM
RVYPVSVPYSSAQSTSKTSVTLSLVMPSQ (Tab1 residues 384-412 (Mus musculus)) — Kd (Mapk14 (Mus musculus, UniProt P47811); ITC; peptide): 2900 nM
HRK BH3 peptide, N-acetyl, C-terminal amide (Homo sapiens) (sequence not shown) — Kd (BCL2L1; ITC): 30 nM
SDLACRLLGQSMDESGLPQLTSYDCEVNAPIQGSGSGSGSRNLLQGEELLRALDQVN (HIF1A 776-826 807-811 replaced by (GS)3 (Homo sapiens, UniProt Q16665); sequence looked up) — Kd (Crebbp; fluorescence polarisation): 130 nM
GLFSDEEDSEDLFSSQS (WASHC2A 536-552 (Homo sapiens)) — Kd (SNX27 (Homo sapiens, UniProt Q96L92-3); ITC; peptide): 23600 ± 2190 nM
FAQLQLDEETGEFLPIQPAQ (NFE2L2 71-90; N-acetyl, C-terminal amide) — Kd (KEAP1; ITC; peptide): 24 nM
EEEWAREFGAQLRRAADDLNAQYERRR (PUMA residues 130-156 M144A/I137F; N-acetyl, C-terminal amide) — Kd (Mcl1 152-308; SPR; peptide): 17.7 ± 4.3 nM
SIFDDDMDDIFSSG (WASHC2A 1289-1302 (Homo sapiens)) — Kd (SNX27 fragment (Homo sapiens); ITC; peptide): 25600 ± 350 nM
EEEWAREIGAQLRRAGDDLNAQYERRR (PUMA residues 130-156 M144A/A145G; N-acetyl, C-terminal amide) — Kd (Mcl1 152-308; SPR; peptide): 0.24 ± 0.06 nM
YAGSDSDLDSDDEFVPY (TELO2 483-497 (Homo sapiens); pS487) — Kd (PIH1D1 1-180 (Homo sapiens, UniProt Q9NWS0); ITC; peptide): 30100 nM
YWISNSWTTYRYVSTC (engineered peptide) — Kd (Vps26b/VPS35 VPS35 (Mus musculus; Homo sapiens); ITC; peptide): 491 ± 27 nM
SDLACRLLGQSMDESGLPQLTSYDCEVNAPIQGSGSGSGSGSRNLLQGEELLRALDQVN (HIF1A 776-826 807-811 replaced by (GS)4 (Homo sapiens, UniProt Q16665); sequence looked up) — Kd (Crebbp; fluorescence polarisation): 160 nM
Histone H3.1 fragment (Homo sapiens) (sequence not shown) — Kd (WDR5 fragment Y131A (Homo sapiens); ITC): 22800 ± 2220 nM
GKAPRKQLAT (histone H3 14-23 (UniProt P68431); acetylated K18; sequence looked up) — Kd (YEATS4 19-159 (Homo sapiens, UniProt O95619); ITC; peptide): 630000 nM
KRRQTTITSHFHSKR (CDKN1A/DNMT1 chimeric PIP-box peptide; C-terminal amide) — Kd (PCNA; SPR; peptide): 106 nM
TSLFEEDEEDDLFAIAK (WASHC2A 662-678 (Homo sapiens)) — Kd (SNX27 fragment (Homo sapiens); ITC; peptide): 42500 ± 2970 nM
FAQLQLDPETGEFLPIQPAQ (NFE2L2 71-90 E78P; N-acetyl, C-terminal amide) — Kd (KEAP1; ITC; peptide): 6 nM
SSASSEDYIIILPECFDTSRPLGDS (NBR1 725-749 (UniProt Q14596); FITC label) — Kd (RB1CC1 1490-1594 (Homo sapiens, UniProt Q8TDY2); FP; peptide): 16700 ± 3220 nM
NLFDDNIDIFADLT (WASHC2A 1261-1274 (Homo sapiens)) — Kd (SNX27 K501D (Homo sapiens); ITC; peptide): 38800 ± 280 nM
YIKTPLGTFPNRHGC (engineered peptide) — Kd (VPS29/VPS35 full length heterodimer (Homo sapiens); ITC; peptide): 90 ± 3 nM
GCAPMGWRQAMRCKQDSDCLAGCVCGPNGFCG (C3.P1 peptide) — Kd (C3 mature (UniProt P01024); SPR; peptide): 727 nM
SHQKVTLLQLLLGHKNEEN (NRIP1 peptide; N-terminal 5-FAM) — Kd (PPARG 202-477 (Homo sapiens, UniProt P37231-2); FP; peptide): 272 nM
QHWSYKLRPG (GNRH1 mature G6K (Homo sapiens); pGlu1, D-Lys6, sulfo-Cy5, C-terminal amide) — Kd (GNRHR (Homo sapiens, UniProt P30968); FRET or BRET; peptide): 7.8 nM
TPTPSARRTIGPRAPKSKTTY (Cdc12 residues 20-40 (Schizosaccharomyces pombe)) — Kd (cdc15 19-312 E30K/E152K (Schizosaccharomyces pombe, UniProt Q09822); ITC; peptide): 4700 nM and 6900 nM and 3500 nM
